Measurements gathered from unrelated publications.
Each line is one published result; not all experiments were run side by side. Values joined by “and” are separate records of one study, mostly repeats; a detail may differ. ± marks the error that the study gave.
UCHL1: Ubiquitin carboxyl-terminal hydrolase isozyme L1 (UCHL1, Homo sapiens, UniProt P09936)
Sequence of UniProt P09936 (whole entry, looked up): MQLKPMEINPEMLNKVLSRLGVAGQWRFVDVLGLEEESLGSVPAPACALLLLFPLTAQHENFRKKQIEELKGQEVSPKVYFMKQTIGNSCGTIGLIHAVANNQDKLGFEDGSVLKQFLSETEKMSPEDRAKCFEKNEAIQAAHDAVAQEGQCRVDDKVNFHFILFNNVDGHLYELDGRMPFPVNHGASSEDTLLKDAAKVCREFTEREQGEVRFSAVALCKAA

SMILES	tested on	test	system	conditions	how to read	measurement	result
Cc1c(-c2ccc(N3CCc4cccc(C(=O)Nc5nc6ccccc6s5)c4C3)nc2C(=O)O)cnn1CC12CC3(C)CC(C)(C1)CC(OCCNCC[C@H](O)CO)(C3)C2			anaesthetized male beagle dog	iv infusion, 0.01 mg/kg/min, 45 min		plasma concentration	< 2 ng/mL
Cc1ccc(C(=O)N(CCCN)C(c2nc3snc(C)c3c(=O)n2Cc2ccccc2)C(C)C)cc1 (centres unmarked)		stomatitis grade ≥3 (CTCAE)	human patients	intravenous, 7 mg/day		patients with adverse event	0%
CNc1ccc(-c2nc3ccc(O)cc3s2)cc1 [carbon-11 labelled]		ex vivo biodistribution	B6SJL mouse, normal, spleen	intravenous, 30 min		SUV	0.464 ± 0.057
CC1CCN(c2nc(Cl)nc(Nc3ccc4c(c3)OCO4)n2)CC1	UCHL1	covalent, intact protein LC-MS		12.5 µM		labelling	10.4%
CC=CC1CCC(C2CCC(CCC)CC2)CC1 (centres unmarked)			human mother-newborn pairs, female fetuses, cord serum			mean serum concentration	1.01 ng/mL
O=C(Nc1nc2cccc(-c3ccc(CN4CCS(=O)(=O)CC4)cc3)n2n1)C1CC1		refers to: vascular disorders	rheumatoid arthritis patients	oral, 200 mg once daily, 4 weeks, any relatedness		treatment-emergent adverse events	0%
O=C(O)c1cccnc1Nc1cccc(C(F)(F)F)c1						pKa (acidic)	4.8
CC(C)C[C@H](NC(=O)CNC(=O)c1cc(Cl)ccc1Cl)B(O)O		refers to: Insomnia	human newly diagnosed multiple myeloma	oral, dose not given, maintenance, grade 3, onset cycle 17 or later		treatment-emergent adverse events	0%
C[C@H]1CNC(=O)c2cnn3ccc(nc23)N[C@H](C)c2cc(F)ccc2O1			Balb/c nude mice, female, brain	oral, 75 mg/kg twice daily, 1 h, steady state		unbound concentration	4.2 ± 0.9 nM
Cc1ccc([C@@H]2O[C@H](CO)[C@@H](O)[C@H](O)[C@H]2O)cc1Cc1ccc(-c2ccc(F)cc2)s1			Japanese type 2 diabetes patients	25 mg, day 2, 24 h urine collection	reference: baseline	urinary chloride excretion change	-54 mEq
C#Cc1cccc(Nc2ncnc3cc(OCCOC)c(OCCOC)cc23)c1		UPLC-MS/MS	Wistar rat, male, plasma	oral, four weeks, added: PPA 175 mg/kg, low dose	reference: control	CL/F decrease	53%
Cn1cc(-c2cn3nccc3c(-c3cnn([C@]4(CC#N)C[C@@H](C#N)C4)c3)n2)cn1			healthy human fed	200 mg twice daily, day 10		mean residence time	17.1 h
CCN1/C(=C/C(C)=O)Sc2ccc(F)cc21			cynomolgus monkey	oral, 100 mg/kg, 6 h post-dose		QT interval	275 ± 36 ms
C[C@@H]1CN(c2c(F)c(N)c3c(=O)c(C(=O)O)cn(C4CC4)c3c2F)C[C@H](C)N1			male Hartley guinea pigs, anaesthetized	intravenous, 10 mg/kg group, baseline before infusion		mean blood pressure	37 ± 0.2 mmHg
CNC(=O)c1ccc(-c2cnc3ncc(Cc4ccc5ncccc5c4)n3n2)cc1F		CTCAE v4.0, any causality	human cancer patients	oral, 600 mg twice daily, expansion, other tumours, RP2D		dry mouth incidence (all grades)	17%
C=CC(=O)N1CCC(c2ccc(C(N)=O)c(-c3ccc(Oc4ccccc4)cc3)n2)CC1		serious adverse event Endophthalmitis	patients with relapsed/refractory MCL	oral		incidence	0.9%
[Cl][89Zr]([Cl])([Cl])[Cl]		radio-TLC	hydrochloric acid	concentration not given, up to 5 days		EDTA reactivity	100%
C[C@H]1Oc2cc(cnc2N)-c2c(nn(C)c2C#N)CN(C)C(=O)c2ccc(F)cc21			human patients, plasma	oral, cycle 2 day 1, mean, added: avelumab		Tlast	19 h
CCOC(=O)CNC(=O)c1ncccc1O						pKa (acidic)	7.7
C[C@@H](Nc1cc(F)cc(F)c1)c1cc(C(=O)N(C)C)cc2c(=O)cc(N3CCOCC3)oc12		refers to: Vomiting	advanced solid tumour patients	oral, dose not given, dose expansion		related serious adverse events	5%

SMILES	tested on	test	system	conditions	how to read	measurement	result
Cc1cc(Nc2cc3ncccc3c(N[C@@H]3C[C@H]4CC[C@@H](C3)N4CCC#N)n2)n[nH]1			healthy human subjects	oral, 1000 mg, 2 weeks, single ascending dose		pruritus incidence	0%
O=[N+]([O-])c1cnc2ccc(F)cc2c1O			sheep erythrocytes	1 h, pH 7.5		maximum haemolysis	3.1%
C[C@@H]1COCCN1c1cc(C2([S@](C)(=N)=O)CC2)nc(-c2cc[nH]c3nccc2-3)n1			Japanese advanced solid tumour patients	oral, 240 mg twice daily, any grade		Vomiting incidence	16.7%
Cc1ccc(C(=O)Nc2ccnc(S(N)(=O)=O)c2)c(N2CCCC(F)(F)CC2)n1			rhesus monkey, plasma	oral, 3 mg/kg		unbound plasma concentration	55 to 223 nM
FC(F)(F)c1ccc(CNc2ccc(Cc3c[nH]c4ncc(Cl)cc34)cn2)cn1		refers to: blood creatine phosphokinase increased	patients with advanced solid tumours	oral, dose not given, grade 1 and 2, possibly related to drug		adverse event incidence	31%
N#Cc1ccc2c(c1)[C@H]1CCCN(C(=O)c3ccc4[nH]cnc4c3)[C@H]1C2			human, female	10 mg, day 7		androstenedione level	6.3 nmol/L
Cn1cncc1-c1c(F)cncc1NC(=O)c1c(N)nn2cc(F)cnc12		two-compartment PK-TGI model	xenograft-bearing mice, plasma			elimination rate constant k10	0.74 h⁻¹
N#Cc1ccc(-c2cnc3ccc(-c4ccc(C(=O)N5CCOCC5)cc4)cn23)cc1		refers to: PR interval	healthy volunteers	oral, 20 mg, fasted, time-averaged		placebo-corrected change from baseline	-3.6 ms
NC(=O)N1c2ccccc2C=Cc2ccccc21			human	concentration not given		ALT increase resolution time	20 days
O=C1CCc2ccc(OCCCCN3CCN(c4cccc(Cl)c4Cl)CC3)cc2N1		refers to: Xerostomia	genotyped patients, CYP2D6 normal metabolizers	dose not given, long-acting oral or depot		adverse event incidence	7.3%
FC(F)(F)c1ccc(CNc2ccc(Cc3c[nH]c4ncc(Cl)cc34)cn2)cn1		refers to: dry skin	human, advanced solid tumours, non-TGCT cohort	oral, 1000 mg/day, grade 3 or higher		treatment-related adverse events	0%
COCc1cc(C(=O)Nc2cc([C@H]3CC[C@@H](OC(=O)NC(C)C)C3)[nH]n2)n(C)n1			OVCAR-3 xenograft, NOD/SCID gamma mice, plasma	oral, 50 twice daily, PK/PD study		unbound Cmax	1120 nM
O=C(CCCN1CC=C(n2c(=O)[nH]c3ccccc32)CC1)c1ccc(F)cc1			male Hartley guinea pigs, anaesthetized	intravenous, 0.3 mg/kg over 10 min, after infusion		mean blood pressure	26 ± 0.2 mmHg
O=C(Nc1cnccc1Cl)N1CCN(Cc2ccc3c(c2)OC(F)(F)O3)CC1			healthy young men, plasma	oral, 75 mg once daily, day 10, dosing interval 24 h		AUC(0-tau)	11300 ng·h/mL
CC(C)(C(=O)N1CCOc2c(C#N)cncc2C1)C(F)F		refers to: Vascular disorders	human	oral, 20 mg once daily, 14 days, multiple ascending dose		subjects with adverse event	0%
NC1(C(=O)N[C@@H](CCO)c2ccc(Cl)cc2)CCN(c2nc[nH]c3nccc2-3)CC1			metastatic CRPC patients	400 mg b.i.d., any grade, treatment-related, added: enzalutamide 160 mg daily		incidence of maculopapular rash	14.3%
Cc1nc2cccc(OCC(C)(C)C(=O)NC(C)C)c2c(N)c1C(=O)O			male Swiss albino CD-1 mouse, bone marrow	oral, 1000 mg/kg, 48 h		micronucleated PCE per 14000 PCE	7
COc1cc2c3c(n(CCCN4CCOCC4)c(=O)c2cc1OC)-c1cc2c(cc1C3=O)OCO2			beagle dog, female, plasma	intravenous infusion, 100 mg/m^2, 1 h infusion, vehicle 1		CL	36.6 ± 9.9 L/h/m²
O=C(O)CCCOc1ccc([18F])cc1-c1cc(-c2ccccc2C(F)(F)F)n(-c2ccccc2)n1		gamma counting	male ddY mice, pancreas	intravenous, 2.1 MBq, 30 min		radioactivity uptake	0.25 ± 0.03 SUV
O=C(CCl)NSc1ccc([N+](=O)[O-])cc1	UCHL1	covalent, intact protein LC-MS		12.5 µM		labelling	3.64%

SMILES	tested on	test	system	conditions	how to read	measurement	result
O=C(CS(=O)(=O)O)Nc1ccc(N2CCOCC2)c(Br)c1			CD-1 mice, whole blood	intravenous, 2 mg/kg		C0	8090 nM
C=CC(=O)N(C)CCOc1c(N)ncnc1-c1cc(F)cc(NC(=O)c2ccc(C3CC3)cc2F)c1C			human	oral, 20 mg, day 7, median, added: ritonavir		AUC(0-last) per dose	19.9 ng·h/mL/mg
Br.CCCCCCCCCn1c2c(c(=N)c3c1CCC3)CCCC2	Trypanosoma cruzi	reporter translation, Renilla luciferase mRNA translation	cell-free extract	40 µM	reference: DMSO	inhibition	68.8%
N=C(N)NCCNC(=O)C1(Nc2ccccc2)CCN(Cc2ccccc2)CC1			Sprague-Dawley rats (male), plasma	intravenous, 2.5 mg/kg		C0	17400 ± 9070 ng/mL
Cc1cc(-c2nccc3c2ccn3CC(=O)Nc2ccc(-c3cnccn3)cn2)ccn1			human	15 mg once daily, multiple ascending dose		subjects with contact dermatitis	0%
O=C1NCCc2nc(OCc3cccc(F)c3)ccc21		refers to: tail erection	Sprague-Dawley rat male	oral, 100 mg/kg, 4 h	direction not given	Irwin test score	0
COc1ccc(C[C@@H](C)[C@@H](C)Cc2ccc(OC)c(OC)c2)cc1OC			beagle dog male, plasma	oral, 100 mg/kg/day, day 1, median		Tmax	2 h
Cl.[2H]C([2H])([2H])CC(=O)c1cnc(NC(=O)C2CC2)cc1Nc1cccc(-c2ncn(C([2H])([2H])[2H])n2)c1OC			human, fasted, multiple dose	oral, 40 mg twice daily, tablet, day 14, geometric mean		half-life	12.4 h
CCCCCCCOc1ccc(CCC(N)(CO)CO)cc1C(F)(F)F.Cl			healthy men, plasma	oral, 0.75 mg, day 1		AUC(0-tau)	5.99 ng·h/mL
COc1ccc([C@@H](O)c2cc(-c3ncnc4cc(N5CCOCC5)ccc34)c(F)cc2Cl)nn1			locally advanced rectal cancer patients	100 mg, added: capecitabine and radiotherapy		constipation TEAE incidence	0%
CNC(=O)c1ccc(-c2cnc3ncc(Cc4ccc5ncccc5c4)n3n2)cc1F			human severe hepatic impairment NCI	oral, 200 mg single dose, geometric mean		AUC(0-inf)	5310 ng·h/mL
Cn1c(C(F)(F)F)cc(=O)n(-c2cc(Oc3cccnc3OCC(=O)O)c(Cl)cc2F)c1=O			beagle dog, male, plasma	oral capsule, 1000 mg/kg/day epyrifenacil, day 1, 90-day study		Tmax	5 h
CNCc1ccc(-c2[nH]c3cc(F)cc4c3c2CCNC4=O)cc1			patients	oral, 240 mg twice daily, all grades		constipation incidence	0%
C[C@@H](N)C1CCN(S(=O)(=O)c2cccc3cnccc23)CC1			healthy volunteers	250 mg, fasted		participants with orthostatic hypotension	16.7%
CCC(CC)C(=O)Oc1cccc(C(O)CCN)c1.O=CO (centres unmarked)		scotopic ERG	BALB/cJ mice	intraperitoneal, 10 mg/kg, 8 h dark adaptation, added: 10,000 lx photobleach, 10 min		ERG b-wave amplitude	311 µV and 371 µV and 297 µV and 344 µV and 316 µV and 290 µV
CC1(C)CCC2=C(O1)c1ccccc1C(=O)C2=O	Toxoplasma gondii	parasite growth	HFF, bradyzoite, glutamine-induced			EC50	1190 nM
Cc1nc(-c2ccc(OCC(C)C)c(C#N)c2)sc1C(=O)O			KM mouse, chronic hyperuricaemia model	dose not given, day 11		body weight	33.6 g and 36.2 g and 30 g and 29.8 g and 29 g and 32.6 g
CC(=O)Oc1ccccc1C(=O)O			male Hartley guinea pigs, anaesthetized	intravenous, 10 mg/kg over 10 min, after infusion		mean blood pressure	32 ± 0.4 mmHg
CN(C(=O)n1cnc(-c2ccc[n+]([O-])c2)c1)[C@H]1CC[C@H](O)CC1			rat, cortex	oral, 10 mg/kg daily for 5 days, 72 h		tissue concentration	8.7 ± 0.3 ng/g

Some of these lines once more:
SMILES	tested on	test	system	conditions	how to read	measurement	result
O=C(CS(=O)(=O)O)Nc1ccc(N2CCOCC2)c(Br)c1			CD-1 mice, whole blood	intravenous, 2 mg/kg		C0	8090 nM
C=CC(=O)N(C)CCOc1c(N)ncnc1-c1cc(F)cc(NC(=O)c2ccc(C3CC3)cc2F)c1C			human	oral, 20 mg, day 7, median, added: ritonavir		AUC(0-last) per dose	19.9 ng·h/mL/mg
Br.CCCCCCCCCn1c2c(c(=N)c3c1CCC3)CCCC2	Trypanosoma cruzi	reporter translation, Renilla luciferase mRNA translation	cell-free extract	40 µM	reference: DMSO	inhibition	68.8%
N=C(N)NCCNC(=O)C1(Nc2ccccc2)CCN(Cc2ccccc2)CC1			Sprague-Dawley rats (male), plasma	intravenous, 2.5 mg/kg		C0	17400 ± 9070 ng/mL
Cc1cc(-c2nccc3c2ccn3CC(=O)Nc2ccc(-c3cnccn3)cn2)ccn1			human	15 mg once daily, multiple ascending dose		subjects with contact dermatitis	0%
O=C1NCCc2nc(OCc3cccc(F)c3)ccc21		refers to: tail erection	Sprague-Dawley rat male	oral, 100 mg/kg, 4 h	direction not given	Irwin test score	0
COc1ccc(C[C@@H](C)[C@@H](C)Cc2ccc(OC)c(OC)c2)cc1OC			beagle dog male, plasma	oral, 100 mg/kg/day, day 1, median		Tmax	2 h
Cl.[2H]C([2H])([2H])CC(=O)c1cnc(NC(=O)C2CC2)cc1Nc1cccc(-c2ncn(C([2H])([2H])[2H])n2)c1OC			human, fasted, multiple dose	oral, 40 mg twice daily, tablet, day 14, geometric mean		half-life	12.4 h
